Experimental data gathered from unrelated publications.
Parts stem from different laboratories: compare values within a part only. Changes are numbered by the printed parent chain.

Sample 1
Target: RING finger protein unkempt homolog, zinc fingers 1-6, SBP tag (UNK, Homo sapiens, UniProt Q9C0B0, residues 30-357)
Chain of UniProt Q9C0B0 (30-357, looked up): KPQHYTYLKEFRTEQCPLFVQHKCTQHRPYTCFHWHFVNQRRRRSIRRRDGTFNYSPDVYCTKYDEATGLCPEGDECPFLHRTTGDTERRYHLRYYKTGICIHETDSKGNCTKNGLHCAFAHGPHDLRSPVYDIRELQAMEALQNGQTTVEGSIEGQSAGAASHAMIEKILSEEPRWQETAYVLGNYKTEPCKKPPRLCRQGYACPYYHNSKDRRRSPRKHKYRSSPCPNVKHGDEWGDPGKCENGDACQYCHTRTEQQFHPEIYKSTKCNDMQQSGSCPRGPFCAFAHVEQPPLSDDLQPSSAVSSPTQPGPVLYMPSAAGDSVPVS
Technique: RNA Bind-n-Seq
Molecule type: RNA
Matrix: in vitro
Concentration: 100 nM
Notes: RNA with constant flanks, vertebrate orthologous sites, ends assumed
Baseline: input RNA pool
Direction: higher = stronger binding
Endpoint: bound/input enrichment
All sequences stand within: GGGAGUUCUACAGUCCGACGAUC … CAACAGAGGAUUGAGCAUCA
UAUAAUUAUGAAAAUCUAAAGGAUUUUUAAUGUUUAAUUUCCCCCAGCAUAUAUAUUAAGACCUCUUUUUUUUCCAGGCAGAUCAUUCAGAGUGUGCGAGUGUGUGUGCACAUGUUACAA: 0.703 ratio
UGGGAAGUCCUGUCUGCCGUGACACCUCAGUGAGGGAGUCUCUGGGCGUUUGACUGGGCCAGCCUUGCUGGUCCUCAGCCUCUCGACAUGGAAUUCCAUCUCUUUUAUGUCUGCUCAUCC: 0.303 ratio
CAAUUCAAUGGUUGAGGGUUCAGAACUCAAAAAGGUUCGCUCCAACUCUAGGAUUUACCAUAGGUAUUUUUUAUUGGAUGCUGACAUGCAGAGCCUGAGGUGGGAACCAUCUAAGAAGGA: 0.271 ratio
UAAGAAUUGGAAGAAUUGUAUAGGAGGCAGAAGUCAAAAAGUAGAAGCAGUUUGGAAGAGUAGUUACAAAUAUCAAGAGCCAGGUGGCUAAAAGAUGGAGCUAUAGGUCAUGGAAGCUCA: 0.858 ratio
AUUCAAACCCGUGGUGCCCUGGCCUCACGUGGAAGGCGUAGAAGUGGACUUGGAGUCUAUUCGAAGAAGGAACAAGGCCAGACAUGAACAAGAGCGCCGCUCCGGAGGAGAGGACCAGAA: 0.213 ratio
AUGUAAGUAGAAAACAAUUUUCAUUCAUCUUCCCAUUGUGAAAUUCUCUAGCACUGUAUUUAGAAUCUGGAUUUUUAUAAUUCAUGCUUAAUGUAUUAGACAUUUUUAGCCCAUAAUUAA: 1.37 ratio
GGCCUCCUGAACUUCUAGCUUUCAAGCUGUGGCUGUUUUAGAUACUGGUUUUAUUUUCUUUGCAGUUUUUCCCUGUUUCCCACAUUCUCUCCCCCUCUUCCCAAGGUUUGACUCAUGGAU: 1.29 ratio
UUCAGUCCCCUGGGCUGGGACACUUGUUUUUUAACGUCUUGAAAUUUAACUCUGUGCUUGUGGAAGACUGUAACCUUUUUGUCUUUUUUUUUUUUAAACCAUCAAUCUCCACCUCCAGUG: 0.701 ratio
UUGUUUUGUGCAGGGUAUUCUCUGUACAAAUUUGUUGUGGUUAUAAAACAAUUAGCAAAACAGCUUACAUUUGUAUUUAUUUUCUAUUCCAUACCUCUGCCCCAUGUUUUUUCUCCUCAA: 0.57 ratio
AGUACUUAAGCCAACACCUAGUUCUAAAAUGCUAUUUAUUUGUGUCUGUAAGUUUGUACAUAAUAAUACCAACCUCAUUUUUGUUGUGGGGGGGUGGGUUUUGUUUUUUGGGUUUUUUUU: 0.779 ratio
CUACUAUAAACAACUCAGGGCAGUAUUCUCGAUAUCCUUACAGUAACCUUAAUCAGGGAUUAGUUAAUAAUACAGGGAUGAAUCAGAAUUUAGGCCUUACAAAUAACACUCCGAUGAAUC: 1.14 ratio

Sample 2
Target: Interferon regulatory factor 3, full length, phosphomimetic (IRF3, Homo sapiens, UniProt Q14653, residues 1-427, S386D/S396D/S398D/S402D/T404D/S405D)
Technique: protein-binding microarray
Molecule type: double-stranded DNA, one strand shown
Matrix: in vitro
Concentration: 2540 nM top
Notes: 60-bp whole probe
Together with: salmon DNA 0.4 mg/ml
Baseline: random background probes
Direction: higher = stronger binding
Endpoint: fitted relative affinity
All sequences stand within: GCCTAGCAC … GTCTTGATTCGCTTGACGCTGCTG
Target sequence (chain): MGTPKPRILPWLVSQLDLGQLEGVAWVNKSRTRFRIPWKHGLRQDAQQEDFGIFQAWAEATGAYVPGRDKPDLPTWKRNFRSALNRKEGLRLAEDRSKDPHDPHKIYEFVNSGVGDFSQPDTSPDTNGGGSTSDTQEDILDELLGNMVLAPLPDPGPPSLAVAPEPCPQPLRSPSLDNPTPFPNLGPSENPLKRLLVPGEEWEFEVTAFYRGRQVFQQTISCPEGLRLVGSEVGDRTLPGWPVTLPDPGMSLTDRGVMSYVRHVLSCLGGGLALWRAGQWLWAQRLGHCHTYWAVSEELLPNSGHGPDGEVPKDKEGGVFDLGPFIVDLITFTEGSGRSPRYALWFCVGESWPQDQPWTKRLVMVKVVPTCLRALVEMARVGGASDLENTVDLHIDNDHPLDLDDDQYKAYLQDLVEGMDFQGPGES
CACGGTATCGGGACTGGGGACGTGCTA: 1.46 z-score
TCAATTATTGTTTCCTTACTGTGCTAG: 5.15 z-score
TTAGATTTCAGTTCCGAGTAGTGCTAG: 2.97 z-score
GACGATTCCAGTTTCGACACGTGCTAG: 2.92 z-score
GACGAACTGGGGACTCGAGACGTGCTA: -0.539 z-score
ATAGGACTGGGTATCGGTTAGTGCTAG: 0.694 z-score
GACGGGTTCGGTATCGGGACGTGCTAG: 2.36 z-score
GACGGTTTCGATACTGGGGACGTGCTA: 6.46 z-score
TCAGATGTCAAACTCACACTGTGCTAG: 0.0943 z-score
ATAGGTATCGGTATCGGTTAGTGCTAG: 5.52 z-score
TAATTTTTTAGCTTCTCAATGTGCTAG: 0.152 z-score
GACTGTTTCCTTTCCCTGACGTGCTAG: 9.17 z-score
TTAGGTTCCGGATTCGGTTAGTGCTAG: 5.06 z-score
TTAGGTTTCCTTTTCCTGTAGTGCTAG: 11.1 z-score
GACAGTATCGGGTTTCGGGACGTGCTA: 3.15 z-score
TTAGTTATCGGGTTTCGATTAGTGCTA: 2.46 z-score
TTAGGTTTCGGGTTTAGGTTAGTGCTA: 5.26 z-score
TGACGGCTCACTCCGTTGGAGTGCTAG: -0.901 z-score

Sample 3
Target: CCNF, cyclin fold, Cln2 fusion (human)
Technique: yeast growth competition, sequencing
Matrix: yeast
Notes: strong parent motif
Baseline: not given
Direction: higher = stronger binding
Endpoint: normalised enrichment score
Starting sequence: RBL2 docking peptide (human); STTRRRLFVENDS; partner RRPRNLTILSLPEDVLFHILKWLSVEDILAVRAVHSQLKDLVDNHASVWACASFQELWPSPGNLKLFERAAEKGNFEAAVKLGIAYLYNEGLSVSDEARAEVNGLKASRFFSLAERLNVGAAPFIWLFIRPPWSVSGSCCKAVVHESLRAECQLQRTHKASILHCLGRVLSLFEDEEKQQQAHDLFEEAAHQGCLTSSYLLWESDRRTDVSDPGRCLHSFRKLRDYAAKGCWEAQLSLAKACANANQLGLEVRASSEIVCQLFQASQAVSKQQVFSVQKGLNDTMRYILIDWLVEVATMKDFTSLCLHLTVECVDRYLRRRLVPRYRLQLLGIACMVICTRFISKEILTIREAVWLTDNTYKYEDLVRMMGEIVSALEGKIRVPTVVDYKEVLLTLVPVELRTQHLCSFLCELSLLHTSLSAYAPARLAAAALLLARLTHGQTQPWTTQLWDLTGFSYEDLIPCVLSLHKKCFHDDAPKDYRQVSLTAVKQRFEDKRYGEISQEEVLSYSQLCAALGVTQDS
T3E: 2.89
L7D: 1.13
R6I: 4.98
S13R: 7.94
L7K: 0.843
V9T: 9.02
R5A: 0.182
L7V: 0.65
R4H: 6.26
E10P: 8.63
T2V: 6.58
S13L: 9.01
V9Q: 7.9
R4Q: 5.86
E10S: 7.98
F8Y: 5.41
F8T: 1.17
R6P: 4.45
N11W: 8.41
D12K: 7.77
E10R: 6.81
N11Y: 8.26
F8P: 0.891
E10D: 9.16
R5I: 1.33

Sample 4
Target: RNA binding protein fox-1 homolog 2, RRM domain, GST-SBP tag (RBFOX2, Homo sapiens, UniProt O43251-10, residues 100-194)
Technique: RNA Bind-n-Seq
Molecule type: RNA
Matrix: in vitro
Concentration: 365 nM
Notes: natural RNA segment, single round, ends assumed
Baseline: no-protein control
Direction: higher = stronger binding
Endpoint: RBNS enrichment (R)
All sequences stand within: GGGAGUUCUACAGUCCGACGAUC … UGGAAUUCUCGGGUGCCAA
Residues (chain): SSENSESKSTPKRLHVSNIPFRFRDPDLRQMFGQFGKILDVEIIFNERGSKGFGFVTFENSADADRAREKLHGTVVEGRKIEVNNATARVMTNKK
CUUCUCUAGGUGGACAUUAAACCAUCGUCCAAAGUACAUGAGAGUCACUGACUCUGUUCACACAACUGUAUGUCUUACUGAAGGUCCCUGAAAGAUGUUUGAGGCUUGGG: 0.772
CAGGGCUUUUGCUUUUCUUCAAAGUACUGAGGAUCCAACCCAGUGCCUUACACGCCAGGCAAGUGUGACCACUGAGCUAGGCUCCCGCCCCCUUUACUUUUUGAAGCCAU: 0.383
CUUGUGGGGAGGGCUCAGGAAUGAUUUAACCCCCCCUAAGAUUAUGGUUGGGUCAGUACAGAUUCCAGGUGACUUCCUUUUUCCAUGUGCCGGGAUGGGAGGGCUGUGUU: 0.774
ACUGACUUAAAUCAAAUUUCCCUGACAUACAUUUUUUUUAAUCUGUGCCAAAAAUGUGUUUUCAAAGAAAAUCUUAUUUUCAUACUCAAGACUUUGUACCGUCACUCAUU: 0.461
UUCAUAAUUGGUGCAGAAAGAAGAAAUGAUCUGAAGAUGUGUUAAAUGGAUUGCAGGGGAAGGAAGGCCCAGGGCCCUGUGUGUCAUGCCCUCUUGGGUUCCUAAGUUCU: 0.764
CUGGACCUGCACCAAAGCUGGCACCAGGGCUCGGAAGGUCUCUGAACUCAGAAGGAUGGCAUUUUUUGCAAGUUAAAGAAAAUCAGGAUCUGAGUUAUUUUGCUAAACUU: 0.561
UUCUACAUUUUAAAAGGAAGAAAAAAAAGCAAAUAACUGAAUUAUUAUAGAAAACUUUAGACCUGUGACAUUUUUUUGUUUUAAAUUACAAAAGAGGUUGGUAUGAUAAA: 0.724
CUGAGGACAGAUUCAUCCAACUUUAACCCCCAGGAACACUGGAAUGUAGGCUGCCAGAUGGGGGCUAUGAAUAUGCAGACUGCAGGAAGUGCAAUGGAUAUCUGUGAUGG: 0.905
UGACACCCUGCGUCCCUGUGUGCAUUAAGUUCAUUCUGGGUCGCAGCCAUGAAGUGUCACCAGUAUCUACUACUGUGAAGUCAGCUGUGCUGUUUUCCAUUCGCUUCCAC: 0.183
UCUCUCCCCUCACUGGUAUGGGUUCAGAGCAAUGCCUAGGGCCCCUCUCUGCUCCCCUGCCUAGUGGGGUGGUAGUGGCUACCUCUCAGCCCCAAUAGUCCCUGCUCCUC: 0.298
UCUUUUGAUAAAAAGUAACAAAAAUUUAAUGCAGAUCAAAGACCAAGGCUUGUAACCAAAACAAGCAAAAAGAAACUUUAGCUGUUUAACUAUCACCUCUCUAAUUUAAA: 0.553
GGGGUUUCCUGGUAUUGUGGAGGCACCCAGGUUGUCCAUGCUUGGGAUUCUGGGGGAAGGAGAGAAGGGCAGCUCAGGGUGGAUGUGAAGCCACCCUUCCUCUUCUGGAC: 1.73

Other studies, line by line
PhoQ, residues 284 288 289 292 302 303 SSCCRF  fold induction (PhoP, residues 12 14 15 18 19 SGWQI (Escherichia coli, UniProt P23836); Sort-seq, refers to: YFP reporter; E. coli; PhoQ-PhoP variant library, together with: 10 µM Mg2+; baseline: high Mg2+ state, higher = stronger signaling): 16.5

A few entries again (sample 3):
F8Y: 5.41
L7V: 0.65
F8T: 1.17
R6I: 4.98
S13R: 7.94
D12K: 7.77
V9Q: 7.9
T2V: 6.58
T3E: 2.89
